Assay results pooled from the literature.
A part holds a random share of what one study measured.

Set 1
Target: Histone acetyltransferase KAT6A, both winged helices, GST fusion (KAT6A, Homo sapiens, UniProt Q92794, residues 1-181)
Method: protein binding microarray
Form: double-stranded DNA, one strand shown
Matrix: in vitro
Concentration: not given
Notes: 8-mer, flanks averaged, mean of 2 arrays, mostly near background
Reference: not given
Direction: higher = stronger binding
Construct (chain): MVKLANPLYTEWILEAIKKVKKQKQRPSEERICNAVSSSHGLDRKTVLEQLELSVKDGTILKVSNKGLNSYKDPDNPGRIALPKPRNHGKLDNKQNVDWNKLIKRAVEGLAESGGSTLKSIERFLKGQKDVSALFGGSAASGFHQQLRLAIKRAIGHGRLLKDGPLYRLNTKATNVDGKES
`ACAGGTCT` gave an E-score of -0.158.
`CTCCACCA` gave an E-score of -0.231.
`CACAGCCG` has an E-score of 0.246.
The E-score of `AGGTAGCC` is reported as -0.103.
`CATCCCCC` gave an E-score of -0.155.
`GGCGTCAC` gave an E-score of 0.154.
The E-score of `GCTGAGCC` is reported as 0.0239.
`ACACGTCG` has an E-score of 0.11.
`ACCGCGTA` gave an E-score of 0.255.
`CTTGGTTA` has an E-score of -0.0728.
The E-score of `CGTTTACA` is reported as 0.105.
The E-score of `ATGACTTC` is reported as -0.0403.
`CTCACAGC` gave an E-score of -0.0595.
`TCTATTCA` has an E-score of -0.142.
`GGACGTCA` gave an E-score of -0.0751.
`CTAAACGC` has an E-score of 0.128.
The E-score of `CACTCCTG` is reported as -0.17.
The E-score of `CCCAGAAG` is reported as -0.165.
The E-score of `AGGGACTG` is reported as -0.146.
`GAAGGTCC` has an E-score of -0.0183.
For `AAAGAAGG`, the E-score was -0.161.
For `CTTCTCCA`, the E-score was -0.1.
The E-score of `CGTCAGGC` is reported as 0.00109.
For `CAGCCATC`, the E-score was -0.0882.
`ATTGTGTA` gave an E-score of -0.0368.

Set 2
Target: Ras GTPase-activating protein-binding protein 1, full length (G3BP1, Homo sapiens, UniProt Q13283)
Sequence of UniProt Q13283 (whole entry, looked up): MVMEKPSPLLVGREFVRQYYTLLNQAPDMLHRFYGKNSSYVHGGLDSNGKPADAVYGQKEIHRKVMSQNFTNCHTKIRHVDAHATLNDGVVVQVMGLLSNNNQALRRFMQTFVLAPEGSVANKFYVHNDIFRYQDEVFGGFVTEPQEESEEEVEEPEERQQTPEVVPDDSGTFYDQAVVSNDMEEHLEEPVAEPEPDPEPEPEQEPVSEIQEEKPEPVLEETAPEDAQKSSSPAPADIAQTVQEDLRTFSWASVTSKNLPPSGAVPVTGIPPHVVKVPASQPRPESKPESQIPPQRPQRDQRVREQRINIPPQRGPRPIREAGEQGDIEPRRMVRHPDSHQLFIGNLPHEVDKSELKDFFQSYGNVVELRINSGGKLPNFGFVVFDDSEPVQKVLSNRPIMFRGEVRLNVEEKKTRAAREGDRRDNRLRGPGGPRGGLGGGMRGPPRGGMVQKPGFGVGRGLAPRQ
Method: RNA Bind-n-Seq
Form: RNA
Matrix: in vitro
Concentration: 200 nM
Notes: whole 134-nt RNA, ends assumed
Added: 150 mM KCl
Reference: input library
Direction: higher = stronger binding
`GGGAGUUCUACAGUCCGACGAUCCUCAAGUCCUGUGCUACACAUCGUAUGUACCGAAUCGGAAGGGGAAGGGAAGGAAAGUAUUAUGUUACGCCGUUCGGAUCUGCACUUCCAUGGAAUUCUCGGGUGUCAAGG` has a log2 enrichment of -0.0846.
`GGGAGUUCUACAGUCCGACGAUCCACAGACAACACGCACCAACACAGACACAGAGGGAAGGGGUUGGGAUGGGGACAGGGUGCACAGCAGGGCGGGGUAGGACCCCAGCCCCUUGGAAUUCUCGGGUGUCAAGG` gave a log2 enrichment of 1.69.
The log2 enrichment of `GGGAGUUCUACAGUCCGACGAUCCAAGUCCUGUGCUACACAUCGUAUGUACCGAAUCGGGUGGGAAAAAGGGUUUGGGAAAGUAUUAUGUUACGCCGUUCGGAUCUGCACUUCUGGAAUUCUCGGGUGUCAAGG` is reported as 0.66.
With `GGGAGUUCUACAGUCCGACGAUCCUGUGCUACACAUCGUAUGUACCGAAUCGGGGUUUUUUUGGGGAAAAAAAGGGGAAAGGGGAAAGUAUUAUGUUACGCCGUUCGGAUCUGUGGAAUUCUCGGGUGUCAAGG` the log2 enrichment was -0.317.
`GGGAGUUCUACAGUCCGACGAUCAAGUCCUGUGCUACACAUCGUAUGUACCGAAUCGGGUUUGGGGUUUGGGGUUUGGGAAAGUAUUAUGUUACGCCGUUCGGAUCUGCACUUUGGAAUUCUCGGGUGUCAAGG` gave a log2 enrichment of 0.176.
`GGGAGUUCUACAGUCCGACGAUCAAGUCCUGUGCUACACAUCGUAUGUACCGAAUCGGGCCCCGGGCCCCGGGGCCCCGGAAAGUAUUAUGUUACGCCGUUCGGAUCUGCACUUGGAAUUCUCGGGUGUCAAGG` has a log2 enrichment of 0.874.
With `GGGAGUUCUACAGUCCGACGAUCGAUGAUUACUAUGGUUAUGAUUAUCACGACUAUCGUGGAGGCUAUGAAGAUCCCUACUACGGCUAUGAUGAUGGCUAUGCAGUAAGAGGAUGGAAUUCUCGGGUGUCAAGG` the log2 enrichment was -1.4.
`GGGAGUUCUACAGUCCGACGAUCGCAGGAAGUAAAAACAAAUGGAAAUGCUUCGGAUAGUGGCAGGGGUGGGGGUUGCUCAGGAAAGGGUGGGAUGGGAGUGGGUAAAGAGUUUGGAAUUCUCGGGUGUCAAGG` has a log2 enrichment of 1.19.
`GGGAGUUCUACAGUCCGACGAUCCCUGUGCUACACAUCGUAUGUACCGAAUCGGGGAAAAAAGGGAAAAAAGGGAAAAAAGGGGAAAGUAUUAUGUUACGCCGUUCGGAUCUGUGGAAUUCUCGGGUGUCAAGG` has a log2 enrichment of -0.465.
The log2 enrichment of `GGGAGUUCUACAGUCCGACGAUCCCUGUGCUACACAUCGUAUGUACCGAAUCGGGGUUUUUGGGGAAAAAAAGGGGAAAGGGGAAAGUAUUAUGUUACGCCGUUCGGAUCUGCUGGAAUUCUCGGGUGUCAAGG` is reported as 0.307.

Set 3
Target: Protein max, full length (MAX, Homo sapiens, UniProt P61244-2, residues 1-151)
Method: protein-binding microarray
Form: double-stranded DNA, one strand shown
Matrix: in vitro
Concentration: not given
Notes: k-mer, scored over probes, only values ≥0.25
Direction: higher = stronger binding
`ACATGGCC` has an E-score of 0.37.
`CATGCGCA` has an E-score of 0.425.
With `ACCCACAT` the E-score was 0.29.
`CCACGTGG` gave an E-score of 0.497.
The E-score of `ATGCTGCC` is reported as 0.314.
With `CTGGCCAC` the E-score was 0.289.
`GCATGCCA` has an E-score of 0.374.
`AAGCACGT` has an E-score of 0.445.
The E-score of `ATCCACGC` is reported as 0.378.
`CAATCATG` gave an E-score of 0.313.
`CAACGTGA` gave an E-score of 0.444.
`CGCACACC` gave an E-score of 0.271.
With `TGCACACA` the E-score was 0.273.
For `CATGGGCA`, the E-score was 0.28.
With `ACGCATGG` the E-score was 0.444.
`ACAATGCG` has an E-score of 0.317.
`CGTGTCAG` has an E-score of 0.312.
For `AGGTCACG`, the E-score was 0.353.
`CACGCCAA` gave an E-score of 0.288.
The E-score of `ATCAGGTG` is reported as 0.354.

Set 4
Target: RNA binding protein fox-1 homolog 2, RRM domain, GST-SBP tag (RBFOX2, Homo sapiens, UniProt O43251-10, residues 100-194)
Method: RNA Bind-n-Seq
Form: RNA
Matrix: in vitro
Concentration: 365 nM
Notes: natural RNA segment, single round, ends assumed
Reference: no-protein control
Direction: higher = stronger binding
Residues (chain): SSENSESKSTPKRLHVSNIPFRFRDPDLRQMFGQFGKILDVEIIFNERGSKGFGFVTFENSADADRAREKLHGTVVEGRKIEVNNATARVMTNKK
`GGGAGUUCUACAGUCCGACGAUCCUACUUGGAAUGUGGAUAAAUGUAAAAAGAAGAAAAGUUAGAAGAGCAAUAUGUUUCCUUCUCUGUAACAGUGUCCUAACAGUGAAAAUCAGAGUUAUUUGUUAAUUUUUUGGAAUUCUCGGGUGCCAA`: “RBNS enrichment (R)” 1.13.
For `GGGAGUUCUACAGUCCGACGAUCAGCAACUGUCCCUAAGAUGCUUUCAAGUGUAUGAGACAUGAGGAGGCUGGGCCACUCUGGUUAUGCACAGUCAGGCAAACUGUCCUUGUAGACGAGUCCCCGACUCUGGGUGGAAUUCUCGGGUGCCAA`, “RBNS enrichment (R)” read 0.372.
For `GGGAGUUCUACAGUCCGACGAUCGCCCUAAAGCAUCCUUUCUUUUACCCACUUAAAAAGCAUACGUGAUUUAUAAACACAGUGCUCUGAAAGGAAUCUUACAGACUGUAUCAGUCUAGCUUUUAAUUAAGUUAUGGAAUUCUCGGGUGCCAA`, “RBNS enrichment (R)” read 0.306.
For `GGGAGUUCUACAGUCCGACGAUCACCUUACUCCUUUCCUUUCCCCUGAACAAACCUGCUAAUCCCACUAAUUCAGGAAUUUGAGUAGAGAUGGGGAACAAGAACCCAGAUGCUGUCCCCUCACCCCCUCUCCUUGGAAUUCUCGGGUGCCAA`, “RBNS enrichment (R)” read 0.453.
`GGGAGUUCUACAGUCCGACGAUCUGUUACUGAAAACUAGAUGUAAACUUAAGUAUUUAGAACAAAAACUACUAGUAAAUACUCAGAACUCUCCCUUCCUGUUGCCUUGCAUUUGGCCAUUAGACAAACUCCUGUGGAAUUCUCGGGUGCCAA` — result for “RBNS enrichment (R)”: 2.11.
Under “RBNS enrichment (R)”, `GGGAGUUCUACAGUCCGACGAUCUUGCUCCGCCUCUGCUGGCACAUUUCCCCAGACCUGAGCUCCCCACCACCCCAGCUGCUCCCCUCCCUCCUCUGUCCCUAGGUCAGCUUGCUGCCCUAGGCUCCGUCAGUUGGAAUUCUCGGGUGCCAA` is recorded as 0.274.
For `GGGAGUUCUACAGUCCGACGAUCUGUUACAAAAUGUAACUGUUACCAUUGGAAAUUUCACAUGUCAAAGGAGGUUAGCCGUUAUUUACCAACUUUCAAGAACGUAAUCUUGUUCAAUAAGGUGAAAUAUCAAUUGGAAUUCUCGGGUGCCAA`, “RBNS enrichment (R)” read 0.347.
`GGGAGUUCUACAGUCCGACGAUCGUACCGAGCAAUGAAACUGAAGGUACAGCACUGGGCGUCUGGGGACCCCACGCUCUCCCAACGCCCAGACUAUGUGGAGCUGCCAAGCCCCUGUCUGGGCACCUCUGCCCUGGAAUUCUCGGGUGCCAA` — result for “RBNS enrichment (R)”: 0.813.
Under “RBNS enrichment (R)”, `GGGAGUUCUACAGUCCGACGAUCUCAGAUACAUGAACAUGUCUUACAUGGGUUGCUGUAUUUAGAAUUAUAAACAUUUUUCAUUAUUGGAAAGUGUAACGGGGACCUUCUGCAUACCUGUUUAGAACCAAAACUGGAAUUCUCGGGUGCCAA` is recorded as 0.228.
`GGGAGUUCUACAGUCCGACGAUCAUUGCUUGAAUCACACUUUUACUGUGGCUGAAUUUUUUGUGCCUAGUUAUAAAAAAGACACUUCGAAUUAUUUGAGUUAUAAAUAGCUUUUGUGACAGGAGCAUACCCAGUGGAAUUCUCGGGUGCCAA`: “RBNS enrichment (R)” 0.4.
`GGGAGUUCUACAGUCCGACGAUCAUAAUUACAGGAAGUUUUUAUUUUUAAAACUGGAUCUGGGGUAUAUUCAUUUGCCCCAUCACCUCUGUCUAAAGGCCCAAGUCCUAGGGCUGCCAUGGUCACAAGCACACUGGAAUUCUCGGGUGCCAA` — result for “RBNS enrichment (R)”: 0.293.
`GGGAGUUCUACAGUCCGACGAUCGUGUGUCUCAGCUGUGUUUAUGAAUUUGUUUGGUUCACACAUAUCUGAGUGGUAUGGAUAACUGGGCAUCUCUAACCCAGGGCAAUCAGUAAGAACUAAUAACCUGUGUCUGGAAUUCUCGGGUGCCAA` — result for “RBNS enrichment (R)”: 0.498.

Other studies, line by line
For `PSACRNLFGPVDH`, “score minus score, wild type” read 0 (human cyclin D2; cyclin docking binding, deep mutational scanning; peptide, yeast cyclin D2-Cln2 system; direction not given).

For quick reference, copied from above (set 1):
`ACACGTCG` has an E-score of 0.11.
`ACCGCGTA` gave an E-score of 0.255.
`CTTGGTTA` has an E-score of -0.0728.
The E-score of `CGTTTACA` is reported as 0.105.
The E-score of `ATGACTTC` is reported as -0.0403.
`CTCACAGC` gave an E-score of -0.0595.
`TCTATTCA` has an E-score of -0.142.
